{"data": "Measurements gathered from unrelated publications", "T1": "preQ1-II riboswitch RNA (Carnobacterium antarcticum); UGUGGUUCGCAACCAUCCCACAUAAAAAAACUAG", "T2": "ssDNA, aptamer; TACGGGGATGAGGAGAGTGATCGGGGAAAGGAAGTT", "note": "Compare with care: the assays were run in different laboratories. “And” joins repeats or separate records; there may be more than shown. ± gives the spread as reported.", "UniProt O76090, sequence (whole entry, unmodified, looked up)": "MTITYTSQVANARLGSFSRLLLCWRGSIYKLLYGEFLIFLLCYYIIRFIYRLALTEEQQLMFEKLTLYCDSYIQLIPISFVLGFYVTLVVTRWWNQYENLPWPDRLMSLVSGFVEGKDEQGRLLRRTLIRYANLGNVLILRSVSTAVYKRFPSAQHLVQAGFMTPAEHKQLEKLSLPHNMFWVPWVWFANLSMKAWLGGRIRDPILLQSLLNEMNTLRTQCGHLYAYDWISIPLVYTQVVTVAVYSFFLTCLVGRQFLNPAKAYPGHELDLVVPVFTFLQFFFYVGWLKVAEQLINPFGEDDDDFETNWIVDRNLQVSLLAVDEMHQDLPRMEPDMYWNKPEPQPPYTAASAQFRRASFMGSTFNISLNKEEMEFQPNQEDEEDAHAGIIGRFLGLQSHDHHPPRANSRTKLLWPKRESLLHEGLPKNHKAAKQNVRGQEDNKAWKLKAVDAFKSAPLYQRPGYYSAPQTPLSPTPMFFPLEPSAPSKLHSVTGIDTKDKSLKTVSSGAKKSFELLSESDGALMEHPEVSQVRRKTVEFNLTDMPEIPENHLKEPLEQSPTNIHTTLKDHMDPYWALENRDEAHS", "UniProt P34995, sequence (whole entry, unmodified, looked up)": "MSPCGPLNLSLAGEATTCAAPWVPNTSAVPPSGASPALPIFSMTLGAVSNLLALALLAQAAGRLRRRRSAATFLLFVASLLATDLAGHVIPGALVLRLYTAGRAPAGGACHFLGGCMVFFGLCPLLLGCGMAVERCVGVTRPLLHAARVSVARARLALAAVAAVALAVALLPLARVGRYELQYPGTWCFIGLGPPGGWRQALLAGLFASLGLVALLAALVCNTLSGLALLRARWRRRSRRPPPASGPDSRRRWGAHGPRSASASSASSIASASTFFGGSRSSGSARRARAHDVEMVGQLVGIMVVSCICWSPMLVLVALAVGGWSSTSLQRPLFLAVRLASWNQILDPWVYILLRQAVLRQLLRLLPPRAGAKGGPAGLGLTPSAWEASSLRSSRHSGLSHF", "UniProt P11388, sequence (whole entry, looked up)": "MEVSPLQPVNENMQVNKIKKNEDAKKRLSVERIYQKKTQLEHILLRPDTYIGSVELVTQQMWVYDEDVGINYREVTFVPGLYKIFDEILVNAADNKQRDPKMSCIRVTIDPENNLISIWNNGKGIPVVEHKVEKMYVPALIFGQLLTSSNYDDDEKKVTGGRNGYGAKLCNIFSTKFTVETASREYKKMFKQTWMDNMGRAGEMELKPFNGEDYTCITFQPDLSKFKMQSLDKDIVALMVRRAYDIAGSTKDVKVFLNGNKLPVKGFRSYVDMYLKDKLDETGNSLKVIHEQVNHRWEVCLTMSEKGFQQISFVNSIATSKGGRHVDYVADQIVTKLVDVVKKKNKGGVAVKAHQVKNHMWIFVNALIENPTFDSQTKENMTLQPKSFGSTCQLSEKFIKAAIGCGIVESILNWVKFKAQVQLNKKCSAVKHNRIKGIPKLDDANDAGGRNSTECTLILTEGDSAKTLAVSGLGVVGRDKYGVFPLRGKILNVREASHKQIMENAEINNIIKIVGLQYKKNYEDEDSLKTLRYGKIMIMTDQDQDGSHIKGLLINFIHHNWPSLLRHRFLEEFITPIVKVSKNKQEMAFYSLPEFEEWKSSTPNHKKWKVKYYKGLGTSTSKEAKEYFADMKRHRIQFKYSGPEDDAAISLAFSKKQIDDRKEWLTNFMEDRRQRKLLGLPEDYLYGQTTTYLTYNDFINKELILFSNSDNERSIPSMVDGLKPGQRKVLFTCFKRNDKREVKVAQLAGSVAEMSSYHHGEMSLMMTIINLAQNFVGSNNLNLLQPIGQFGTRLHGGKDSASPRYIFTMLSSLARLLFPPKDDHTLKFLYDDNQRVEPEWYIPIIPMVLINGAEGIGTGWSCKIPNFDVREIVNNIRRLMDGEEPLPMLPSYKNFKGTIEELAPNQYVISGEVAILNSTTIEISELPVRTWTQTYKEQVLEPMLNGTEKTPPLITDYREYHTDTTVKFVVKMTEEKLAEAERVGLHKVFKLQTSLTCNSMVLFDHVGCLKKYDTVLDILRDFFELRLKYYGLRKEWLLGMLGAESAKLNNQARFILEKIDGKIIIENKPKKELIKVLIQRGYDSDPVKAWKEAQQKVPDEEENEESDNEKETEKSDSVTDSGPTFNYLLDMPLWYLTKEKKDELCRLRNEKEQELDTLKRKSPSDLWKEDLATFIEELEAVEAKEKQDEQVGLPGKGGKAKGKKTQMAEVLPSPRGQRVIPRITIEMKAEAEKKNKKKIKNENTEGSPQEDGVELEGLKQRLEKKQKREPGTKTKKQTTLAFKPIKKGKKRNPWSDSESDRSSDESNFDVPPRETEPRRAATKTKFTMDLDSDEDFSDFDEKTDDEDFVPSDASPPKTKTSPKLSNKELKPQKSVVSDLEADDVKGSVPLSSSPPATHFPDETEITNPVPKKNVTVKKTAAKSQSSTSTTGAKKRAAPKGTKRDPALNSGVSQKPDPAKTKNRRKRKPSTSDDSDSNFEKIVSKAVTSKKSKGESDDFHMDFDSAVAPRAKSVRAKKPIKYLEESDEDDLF", "UniProt Q8N4C8, sequence (whole entry, looked up)": "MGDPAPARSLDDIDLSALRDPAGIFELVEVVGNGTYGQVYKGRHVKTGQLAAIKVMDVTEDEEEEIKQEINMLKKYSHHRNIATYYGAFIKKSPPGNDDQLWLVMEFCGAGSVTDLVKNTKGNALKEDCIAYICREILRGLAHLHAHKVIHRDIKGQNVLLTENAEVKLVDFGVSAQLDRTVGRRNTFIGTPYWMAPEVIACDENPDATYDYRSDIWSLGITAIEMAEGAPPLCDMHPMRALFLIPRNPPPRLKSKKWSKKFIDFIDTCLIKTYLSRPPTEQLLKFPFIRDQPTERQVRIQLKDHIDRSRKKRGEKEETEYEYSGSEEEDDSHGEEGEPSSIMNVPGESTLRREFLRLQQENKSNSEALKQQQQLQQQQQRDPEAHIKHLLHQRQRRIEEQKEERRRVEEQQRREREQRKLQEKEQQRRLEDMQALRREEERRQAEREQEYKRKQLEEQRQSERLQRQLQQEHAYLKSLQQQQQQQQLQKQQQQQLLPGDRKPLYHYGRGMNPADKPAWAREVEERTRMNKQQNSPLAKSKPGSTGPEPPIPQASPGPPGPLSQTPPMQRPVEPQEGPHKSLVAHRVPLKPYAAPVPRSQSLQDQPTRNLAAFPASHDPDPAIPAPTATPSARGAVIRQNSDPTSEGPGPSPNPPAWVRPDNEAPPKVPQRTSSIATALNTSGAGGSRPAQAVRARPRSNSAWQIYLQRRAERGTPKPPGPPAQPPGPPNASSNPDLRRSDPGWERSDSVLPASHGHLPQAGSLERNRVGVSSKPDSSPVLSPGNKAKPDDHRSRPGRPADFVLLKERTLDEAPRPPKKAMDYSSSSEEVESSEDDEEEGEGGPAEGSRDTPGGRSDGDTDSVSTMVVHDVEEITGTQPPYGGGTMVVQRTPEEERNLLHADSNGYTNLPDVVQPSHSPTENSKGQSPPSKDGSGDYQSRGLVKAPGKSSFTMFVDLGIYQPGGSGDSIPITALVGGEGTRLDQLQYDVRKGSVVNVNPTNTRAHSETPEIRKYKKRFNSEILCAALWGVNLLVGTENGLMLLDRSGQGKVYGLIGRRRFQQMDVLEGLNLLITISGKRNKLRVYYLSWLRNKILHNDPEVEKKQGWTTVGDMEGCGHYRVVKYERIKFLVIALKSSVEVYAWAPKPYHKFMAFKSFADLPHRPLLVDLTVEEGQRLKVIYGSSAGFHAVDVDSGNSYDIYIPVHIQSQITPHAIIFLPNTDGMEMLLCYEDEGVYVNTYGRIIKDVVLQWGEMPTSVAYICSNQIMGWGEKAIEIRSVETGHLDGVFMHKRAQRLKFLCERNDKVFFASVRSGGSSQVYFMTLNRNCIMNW", "UniProt P51817, sequence (whole entry, looked up)": "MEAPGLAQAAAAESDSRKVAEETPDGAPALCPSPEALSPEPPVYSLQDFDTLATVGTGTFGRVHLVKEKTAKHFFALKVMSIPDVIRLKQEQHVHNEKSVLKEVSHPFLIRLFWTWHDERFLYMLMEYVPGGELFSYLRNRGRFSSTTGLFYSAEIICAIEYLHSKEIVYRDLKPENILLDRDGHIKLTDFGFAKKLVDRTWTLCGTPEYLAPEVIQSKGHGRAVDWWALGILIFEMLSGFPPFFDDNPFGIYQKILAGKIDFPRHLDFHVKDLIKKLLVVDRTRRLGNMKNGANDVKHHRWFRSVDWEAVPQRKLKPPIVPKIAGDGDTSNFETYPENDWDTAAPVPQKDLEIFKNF", "UniProt O15264, sequence (whole entry, looked up)": "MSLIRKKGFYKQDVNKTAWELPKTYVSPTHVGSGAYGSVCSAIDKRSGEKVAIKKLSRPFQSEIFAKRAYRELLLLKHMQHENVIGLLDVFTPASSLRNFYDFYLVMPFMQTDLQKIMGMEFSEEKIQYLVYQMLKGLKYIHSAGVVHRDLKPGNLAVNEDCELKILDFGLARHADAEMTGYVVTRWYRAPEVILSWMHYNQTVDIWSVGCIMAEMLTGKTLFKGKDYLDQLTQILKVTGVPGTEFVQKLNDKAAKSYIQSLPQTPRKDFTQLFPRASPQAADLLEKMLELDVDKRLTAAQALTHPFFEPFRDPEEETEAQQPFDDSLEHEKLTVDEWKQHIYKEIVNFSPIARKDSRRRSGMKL", "UniProt P41595, sequence (whole entry, looked up)": "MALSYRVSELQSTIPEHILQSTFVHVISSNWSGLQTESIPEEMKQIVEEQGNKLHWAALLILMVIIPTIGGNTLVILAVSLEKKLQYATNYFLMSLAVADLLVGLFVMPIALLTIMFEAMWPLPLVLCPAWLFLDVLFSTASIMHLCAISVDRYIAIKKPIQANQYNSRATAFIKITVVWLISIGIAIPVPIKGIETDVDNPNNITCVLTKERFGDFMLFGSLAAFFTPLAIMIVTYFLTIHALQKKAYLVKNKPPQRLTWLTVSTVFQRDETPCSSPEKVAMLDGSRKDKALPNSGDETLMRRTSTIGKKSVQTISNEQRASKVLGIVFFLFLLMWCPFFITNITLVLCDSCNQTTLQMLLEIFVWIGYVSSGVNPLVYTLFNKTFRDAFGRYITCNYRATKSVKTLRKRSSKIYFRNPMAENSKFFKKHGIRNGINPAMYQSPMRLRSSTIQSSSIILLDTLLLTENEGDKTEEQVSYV"}
{"SMILES": "NCc1c[nH]c2nc(N)[nH]c(=O)c12", "target or system": "T1, preQ1-II riboswitch RNA (Carnobacterium antarcticum)", "test": "X-ray crystallography", "endpoint": "binding", "result": "binds"}
{"SMILES": "Cc1nc(CSc2nc(SCc3ccc(C(C)C)cc3)nc(=O)[nH]2)cs1", "target or system": "DNA topoisomerase 2-alpha, ATPase domain (TOP2A, Homo sapiens, UniProt P11388)", "test": "1H STD NMR, item: 4-Me protons", "conditions": "protein to ligand ratio 100", "endpoint": "STD amplification factor", "result": 1.01}
{"SMILES": "CC(C)(Oc1ccc(Cl)cc1)C(=O)O", "target or system": "human iPSC-derived cardiomyocytes", "test": "MyBP-C/MYH ratio, plate-normalised SD score", "conditions": "concentration not given, primary screen", "how to read": "direction not given", "endpoint": "activity score", "result": 3.3}
{"SMILES": "C=CC(=O)N1CCC(COCC(=O)N2CCN(c3nc(-c4cnc(N)nc4C(F)F)nc(N4CCOC[C@@H]4C)n3)CC2)CC1", "target or system": "MINK1 (Homo sapiens, UniProt Q8N4C8)", "test": "KINOMEscan", "conditions": "1 µM", "endpoint": "remaining binding", "result": "100%"}
{"SMILES": "CC(C)C[C@H](NC(=O)C[C@H](O)[C@H](CC(C)C)NC(=O)[C@H](Cc1c[nH]cn1)NC(=O)CNC(=O)[C@@H](NC(=O)[C@H](C)NC(=O)[C@H](Cc1c[nH]c2ccccc12)NC(=O)[C@H](CCC(N)=O)NC(=O)[C@@H](Cc1ccccc1)NC(=O)COCCOCCNC(=O)CCC(C(=O)O)N1CCN(CC(=O)O)CCN(CC(=O)O)CCN(CC(=O)O)CC1)C(C)C)C(N)=O (stereo partly drawn) [lutetium-177 labelled]", "test system": "BALB/c nu/nu mice, blood", "conditions": "intravenous, 500 pmol, 1 h, together with: PA 300 µg", "endpoint": "tissue uptake", "result": "0.35 ± 0.04 %ID/g"}
{"SMILES": "Oc1ccc(/C=C/c2cc(O)cc(O)c2)cc1", "target or system": "O-methyltransferase (Sorghum bicolor, UniProt A0A1B6PFV1)", "test": "ITC", "conditions": "together with: SAH+", "endpoint": "-TΔS", "result": "5.26 kcal/mol"}
{"SMILES": "COc1cc(F)ccc1-c1ncnc(Nc2cccc(C[S@](C)(=N)=O)c2)n1", "target or system": "PRKX (Homo sapiens, UniProt P51817)", "test": "kinase activity", "conditions": "10 µM, together with: 10 µM ATP", "endpoint": "remaining activity", "result": "81%"}
{"SMILES": "C[S+]([O-])c1ccc(-c2nc(-c3ccncc3)c(-c3ccc(F)cc3)[nH]2)cc1 (stereo not drawn)", "target or system": "MAPK13 (Homo sapiens, UniProt O15264)", "test": "inhibitor, ADP-Glo", "conditions": "concentration not given", "endpoint": "kinase activity", "result": "no effect"}
{"SMILES": "CCCCCCCCCCOc1cc2c(O)c(C(=O)OCC)cnc2cc1OCC", "target or system": "human iPSC-derived cardiomyocytes", "test": "MyBP-C/MYH ratio, plate-normalised SD score", "conditions": "concentration not given, primary screen", "how to read": "direction not given", "endpoint": "activity score", "result": 3.5}
{"SMILES": "CCCCC[C@H](O)/C=C/[C@H]1[C@H](O)CC(=O)[C@@H]1C/C=C\\CCCC(=O)O", "target or system": "PTGER1 (Homo sapiens, UniProt P34995, Q344A)", "test": "IP1 accumulation, agonist", "test system": "AD293", "conditions": "1 h, EP1 Q344A mutant", "endpoint": "Emax", "result": "51.5 ± 5.83%"}
{"SMILES": "Nc1ccc(C(=O)O)cc1", "target or system": "BEST1, with wild-type BEST1 (Homo sapiens, UniProt O76090, D302A)", "test": "ion current, whole-cell patch clamp", "test system": "HEK293 co-expressing mutant and wild-type", "conditions": "concentration not given, voltage -60 mV", "endpoint": "current density", "result": "-8.6 pA/pF and -4.6 pA/pF and -9.43 pA/pF and -4.45 pA/pF and -10.5 pA/pF and -13.5 pA/pF"}
{"SMILES": "Nc1ncnc2c1ncn2[C@@H]1O[C@H](CO[P@](=O)(O)O[P@](=O)(O)O[P@@](=O)(O)S)[C@@H](O)[C@H]1O", "target or system": "GUK1 (Homo sapiens, UniProt Q16774)", "test": "binding, isothermal titration calorimetry", "conditions": "molar ratio 1.11, fitted curve", "endpoint": "ΔH", "result": "-0.948 kcal/mol"}
{"SMILES": "Nc1ncnc2c1ncn2[C@H]1C[C@H](O)[C@@H](COP(=O)(O)OP(=O)(O)OP(=O)(O)O)O1", "target or system": "T2, ssDNA, aptamer", "test": "molecular beacon fluorescence quenching", "endpoint": "Kd", "result": "2600 nM"}
{"SMILES": "CCN1/C(=C/C(C)=O)Sc2ccc(F)cc21", "test system": "cynomolgus monkey", "conditions": "oral, 30 mg/kg, 0.5 h post-dose", "how to read": "relative to: pre-dose", "endpoint": "PR interval change", "result": "100 ± 2.1%"}
{"SMILES": "CC(C)C[C@H](NC(=O)[C@H](Cc1ccccc1)NC(=O)c1cnccn1)B(O)O", "target or system": "20S proteasome (Plasmodium falciparum, UniProt A0A5K1K7U1+Q8IJT1)", "test": "inhibitor, progress curve", "endpoint": "kobs/[I]", "result": "57100 M⁻¹ s⁻¹"}
{"SMILES": "Cn1cc(-c2ccc(-c3cncc(Cl)c3N3CCC4(CCNC4=O)CC3)cc2)cn1", "target or system": "COLO 205", "test": "gene expression, microarray, item: UCHL1 mRNA", "conditions": "concentration not given, 6 h", "how to read": "relative to: untreated cells", "endpoint": "log2 fold change", "result": 2.15}
{"SMILES": "Cc1cc2c(cc1N1C(=O)c3cccc4c(Cl)ccc(c34)C1=O)n(C)c(=O)n2C", "target or system": "Protein polybromo-1, bromodomain 3 (PBRM1, Homo sapiens, UniProt Q86U86)", "test": "binding, thermal shift", "conditions": "10 µM", "how to read": "higher = stronger binding", "endpoint": "thermal shift", "result": "0.2 °C"}
{"SMILES": "O=C(NO)c1ccc(CN2CCCCc3ccccc32)c(F)c1", "target or system": "HTR2B (Homo sapiens, UniProt P41595)", "test": "radioligand binding, PDSP radioligand binding", "conditions": "10 µM", "endpoint": "inhibition", "result": "43.9%"}
{"note": "For quick reference, copied from above:"}
{"SMILES": "O=C(NO)c1ccc(CN2CCCCc3ccccc32)c(F)c1", "target or system": "HTR2B (Homo sapiens, UniProt P41595)", "test": "radioligand binding, PDSP radioligand binding", "conditions": "10 µM", "endpoint": "inhibition", "result": "43.9%"}
{"SMILES": "C=CC(=O)N1CCC(COCC(=O)N2CCN(c3nc(-c4cnc(N)nc4C(F)F)nc(N4CCOC[C@@H]4C)n3)CC2)CC1", "target or system": "MINK1 (Homo sapiens, UniProt Q8N4C8)", "test": "KINOMEscan", "conditions": "1 µM", "endpoint": "remaining binding", "result": "100%"}
